Results pooled from the literature.
Protocols differ between the studies behind these lines. “And” joins repeats or separate records; there may be more than shown. Numbers after ± are the reported error.

With `CC(C)C[C@@H]1NC(=O)[C@@H](Cc2c[nH]c3ccccc23)NC(=O)[C@H](CCCNC(=N)N)NC(=O)[C@@H](CCC(=O)O)NC(=O)[C@H](CCC(N)=O)NC(=O)[C@@H](CCC(=O)O)NC(=O)[C@H](CCCNC(=N)N)NC(=O)[C@@H](Cc2c[nH]c3ccccc23)NC1=O` the cytokine level was 270 ± 140 pg/g tissue (Luminex, item: IL-12p70; LDLr-/- mice, Western diet, liver; dose not given, 4 weeks).
For `CCc1nnc(-c2c(OC)cc(-c3cnc4cc(-c5cnn(C)c5)ccn34)cc2OC)o1`, “osteoid volume/bone volume” read 0.381 ± 0.0784% (histomorphometry; male C57BL/6J mouse, tibia; oral gavage, 40 mg/kg once daily, 3 wk).
The relative abundance of `COc1ccccc1-c1n[nH]c2nc(N[C@H]3CC[C@H](NS(=O)(=O)CC(C)C)CC3)ncc12` is reported as 1.08 (bead binding, competition bead pull-down, item: LINJ.35.2780; Leishmania donovani extract; 10 µM; relative to: vehicle).
Under “log2 fold change”, `CCCCCC1=C(NCC)C(=O)C(C/C=C(\C)CCC=C(C)C)=C(O)C1=O` is recorded as 1.3 (RNA-Seq, item: Oasl2; lesioned mice, striatum; dose not given; relative to: untreated lesioned mice).
For `O=c1n(CCNCCOS(=O)(=O)c2ccccc2)c(=O)n(S(=O)(=O)c2ccccc2)c(=O)n1S(=O)(=O)c1ccccc1`, the inhibition was 51.2% (DPPH scavenging; 250 µg/mL).
Under “tumour growth inhibition”, `Cc1ccc(S(=O)(=O)N2CC2C(=O)N(C)C)cc1` (stereo not drawn) is recorded as 41% (mouse, Lewis lung carcinoma; intraperitoneal, 170 mg/kg, 16 doses, day 14).
`O=C(O)c1ccc(-c2nc(-c3ccccc3Cl)c3sccn23)cc1` — result for “platelet count change”: 112% and 96.1% and 137% and 104% (C57BL/6 mice; dose not given, day 27, basal hematopoiesis).
`COc1ccccc1-c1n[nH]c2nc(NC3CCN(C(=O)Cc4ccc(F)cc4F)CC3)ncc12` gave a relative abundance of 0.92 (bead binding, competition bead pull-down, item: LINJ.33.1410; Leishmania donovani extract; 10 µM; relative to: vehicle).
Under “median survival time”, `O=C(NCc1cc(F)cc(F)c1)[C@@]1(O)CCN(c2ccc3[nH]ccc3c2)C1=O` is recorded as > 80 days (sample A PDX mouse; dose not given, RTV endpoint 500%).

Excerpt of the above:
`O=C(O)c1ccc(-c2nc(-c3ccccc3Cl)c3sccn23)cc1` — result for “platelet count change”: 112% and 96.1% and 137% and 104% (C57BL/6 mice; dose not given, day 27, basal hematopoiesis).
